Experimental data of several laboratories.
Each line is one published result; not all experiments were run side by side. Several values in a cell are separate wells, animals, samples, runs or records. ± gives the spread as reported.
ache: Acetylcholinesterase (ache, Electrophorus electricus, UniProt O42275)
Sequence of UniProt O42275 (whole entry, looked up): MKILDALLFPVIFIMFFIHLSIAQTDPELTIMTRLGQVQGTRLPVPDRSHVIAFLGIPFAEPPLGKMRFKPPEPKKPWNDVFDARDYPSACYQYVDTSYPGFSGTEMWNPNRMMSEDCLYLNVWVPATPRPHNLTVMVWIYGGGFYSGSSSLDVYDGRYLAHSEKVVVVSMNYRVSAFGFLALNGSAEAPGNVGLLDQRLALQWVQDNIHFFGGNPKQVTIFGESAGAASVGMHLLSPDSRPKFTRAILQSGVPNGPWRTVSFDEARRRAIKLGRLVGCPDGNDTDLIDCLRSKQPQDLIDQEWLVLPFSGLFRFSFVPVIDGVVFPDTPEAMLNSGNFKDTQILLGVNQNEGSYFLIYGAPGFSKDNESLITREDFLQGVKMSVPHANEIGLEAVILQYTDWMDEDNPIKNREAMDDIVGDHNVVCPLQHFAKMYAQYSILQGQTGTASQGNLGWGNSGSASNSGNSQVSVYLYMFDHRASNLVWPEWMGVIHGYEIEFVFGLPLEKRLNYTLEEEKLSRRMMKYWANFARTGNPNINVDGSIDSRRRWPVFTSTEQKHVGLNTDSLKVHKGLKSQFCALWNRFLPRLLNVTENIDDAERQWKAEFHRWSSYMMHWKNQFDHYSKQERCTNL
Chymotrypsinogen A: Chymotrypsinogen A (Bos taurus, UniProt P00766)
Sequence of UniProt Q8R2Y0 (whole entry, looked up): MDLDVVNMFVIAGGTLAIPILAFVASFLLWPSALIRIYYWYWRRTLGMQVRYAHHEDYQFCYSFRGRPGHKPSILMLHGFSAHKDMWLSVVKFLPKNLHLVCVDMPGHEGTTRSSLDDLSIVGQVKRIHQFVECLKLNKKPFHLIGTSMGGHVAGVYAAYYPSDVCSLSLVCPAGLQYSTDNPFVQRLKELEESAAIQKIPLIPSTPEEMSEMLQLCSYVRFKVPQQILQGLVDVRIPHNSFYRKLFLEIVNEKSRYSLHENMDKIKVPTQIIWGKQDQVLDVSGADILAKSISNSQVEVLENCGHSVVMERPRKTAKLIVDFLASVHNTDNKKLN
Sequence of UniProt P21554 (whole entry, unmodified, looked up): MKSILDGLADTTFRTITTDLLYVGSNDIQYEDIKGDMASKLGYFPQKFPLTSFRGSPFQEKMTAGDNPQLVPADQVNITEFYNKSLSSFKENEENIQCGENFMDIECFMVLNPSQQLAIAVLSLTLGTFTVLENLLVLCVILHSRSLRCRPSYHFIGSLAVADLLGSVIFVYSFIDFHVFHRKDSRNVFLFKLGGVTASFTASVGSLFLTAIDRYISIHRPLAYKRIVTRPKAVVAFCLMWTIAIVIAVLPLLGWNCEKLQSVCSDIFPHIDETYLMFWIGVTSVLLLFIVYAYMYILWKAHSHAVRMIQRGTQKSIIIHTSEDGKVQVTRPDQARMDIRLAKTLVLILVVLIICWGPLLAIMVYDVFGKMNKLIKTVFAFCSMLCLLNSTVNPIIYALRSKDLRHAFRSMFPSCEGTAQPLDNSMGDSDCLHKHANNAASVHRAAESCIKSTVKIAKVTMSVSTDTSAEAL
Sequence of UniProt Q9UM07 (whole entry, looked up): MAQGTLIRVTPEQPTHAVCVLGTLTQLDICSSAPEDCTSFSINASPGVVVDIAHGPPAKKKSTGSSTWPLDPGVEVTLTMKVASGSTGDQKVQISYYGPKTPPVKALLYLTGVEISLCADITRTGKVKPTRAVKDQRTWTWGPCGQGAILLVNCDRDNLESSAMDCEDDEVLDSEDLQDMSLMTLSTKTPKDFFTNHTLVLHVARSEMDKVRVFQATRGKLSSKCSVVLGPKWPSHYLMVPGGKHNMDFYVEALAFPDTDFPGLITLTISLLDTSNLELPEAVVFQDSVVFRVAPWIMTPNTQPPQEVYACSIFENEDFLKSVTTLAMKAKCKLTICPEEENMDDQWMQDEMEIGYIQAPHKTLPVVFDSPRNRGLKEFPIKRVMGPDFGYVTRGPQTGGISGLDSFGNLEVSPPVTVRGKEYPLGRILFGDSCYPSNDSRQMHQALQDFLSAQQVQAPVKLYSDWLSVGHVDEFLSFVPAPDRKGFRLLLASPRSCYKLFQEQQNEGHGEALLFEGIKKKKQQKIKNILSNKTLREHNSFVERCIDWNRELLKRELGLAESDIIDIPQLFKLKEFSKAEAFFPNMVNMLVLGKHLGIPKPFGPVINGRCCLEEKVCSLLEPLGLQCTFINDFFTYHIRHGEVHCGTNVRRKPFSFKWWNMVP
Sequence of UniProt Q04759 (whole entry, looked up): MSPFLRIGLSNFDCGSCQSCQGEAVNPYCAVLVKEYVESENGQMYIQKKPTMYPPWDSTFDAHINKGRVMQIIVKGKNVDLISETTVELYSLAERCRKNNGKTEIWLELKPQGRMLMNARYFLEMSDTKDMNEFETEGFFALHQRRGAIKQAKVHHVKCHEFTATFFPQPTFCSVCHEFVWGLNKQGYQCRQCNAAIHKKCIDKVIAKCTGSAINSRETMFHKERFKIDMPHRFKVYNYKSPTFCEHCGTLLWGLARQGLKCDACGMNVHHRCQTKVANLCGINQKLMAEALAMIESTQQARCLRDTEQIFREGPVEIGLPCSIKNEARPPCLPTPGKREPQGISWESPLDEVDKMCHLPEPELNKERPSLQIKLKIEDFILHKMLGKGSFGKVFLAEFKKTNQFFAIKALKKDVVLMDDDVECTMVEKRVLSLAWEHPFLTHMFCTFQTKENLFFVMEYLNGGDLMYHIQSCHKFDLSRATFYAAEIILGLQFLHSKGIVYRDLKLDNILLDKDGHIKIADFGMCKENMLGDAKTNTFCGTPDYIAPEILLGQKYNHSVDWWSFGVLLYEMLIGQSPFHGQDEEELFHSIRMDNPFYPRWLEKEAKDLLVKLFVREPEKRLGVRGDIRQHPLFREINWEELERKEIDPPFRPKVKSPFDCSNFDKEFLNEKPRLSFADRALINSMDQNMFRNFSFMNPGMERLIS
Sequence of UniProt P42765 (whole entry, looked up): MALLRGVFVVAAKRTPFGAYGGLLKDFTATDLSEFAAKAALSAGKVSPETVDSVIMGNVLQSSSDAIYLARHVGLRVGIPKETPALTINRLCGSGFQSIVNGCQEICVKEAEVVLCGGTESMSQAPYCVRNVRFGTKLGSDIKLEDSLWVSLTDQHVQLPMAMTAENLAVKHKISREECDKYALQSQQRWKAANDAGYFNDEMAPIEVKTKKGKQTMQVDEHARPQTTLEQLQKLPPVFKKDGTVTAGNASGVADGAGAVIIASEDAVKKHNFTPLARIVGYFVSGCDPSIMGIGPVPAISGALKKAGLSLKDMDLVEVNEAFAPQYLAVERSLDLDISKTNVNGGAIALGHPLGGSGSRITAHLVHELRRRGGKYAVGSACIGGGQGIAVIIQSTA
Sequence of UniProt P53004 (whole entry, looked up): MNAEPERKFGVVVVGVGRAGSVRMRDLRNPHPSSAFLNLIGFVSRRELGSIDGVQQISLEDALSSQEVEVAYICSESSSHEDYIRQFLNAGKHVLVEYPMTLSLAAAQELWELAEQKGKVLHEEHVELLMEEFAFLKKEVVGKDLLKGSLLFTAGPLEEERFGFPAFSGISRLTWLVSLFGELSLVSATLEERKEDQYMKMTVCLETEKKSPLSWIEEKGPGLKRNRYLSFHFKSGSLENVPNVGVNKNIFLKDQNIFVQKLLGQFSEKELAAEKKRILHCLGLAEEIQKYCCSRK
Sequence of UniProt P07949 (whole entry, looked up): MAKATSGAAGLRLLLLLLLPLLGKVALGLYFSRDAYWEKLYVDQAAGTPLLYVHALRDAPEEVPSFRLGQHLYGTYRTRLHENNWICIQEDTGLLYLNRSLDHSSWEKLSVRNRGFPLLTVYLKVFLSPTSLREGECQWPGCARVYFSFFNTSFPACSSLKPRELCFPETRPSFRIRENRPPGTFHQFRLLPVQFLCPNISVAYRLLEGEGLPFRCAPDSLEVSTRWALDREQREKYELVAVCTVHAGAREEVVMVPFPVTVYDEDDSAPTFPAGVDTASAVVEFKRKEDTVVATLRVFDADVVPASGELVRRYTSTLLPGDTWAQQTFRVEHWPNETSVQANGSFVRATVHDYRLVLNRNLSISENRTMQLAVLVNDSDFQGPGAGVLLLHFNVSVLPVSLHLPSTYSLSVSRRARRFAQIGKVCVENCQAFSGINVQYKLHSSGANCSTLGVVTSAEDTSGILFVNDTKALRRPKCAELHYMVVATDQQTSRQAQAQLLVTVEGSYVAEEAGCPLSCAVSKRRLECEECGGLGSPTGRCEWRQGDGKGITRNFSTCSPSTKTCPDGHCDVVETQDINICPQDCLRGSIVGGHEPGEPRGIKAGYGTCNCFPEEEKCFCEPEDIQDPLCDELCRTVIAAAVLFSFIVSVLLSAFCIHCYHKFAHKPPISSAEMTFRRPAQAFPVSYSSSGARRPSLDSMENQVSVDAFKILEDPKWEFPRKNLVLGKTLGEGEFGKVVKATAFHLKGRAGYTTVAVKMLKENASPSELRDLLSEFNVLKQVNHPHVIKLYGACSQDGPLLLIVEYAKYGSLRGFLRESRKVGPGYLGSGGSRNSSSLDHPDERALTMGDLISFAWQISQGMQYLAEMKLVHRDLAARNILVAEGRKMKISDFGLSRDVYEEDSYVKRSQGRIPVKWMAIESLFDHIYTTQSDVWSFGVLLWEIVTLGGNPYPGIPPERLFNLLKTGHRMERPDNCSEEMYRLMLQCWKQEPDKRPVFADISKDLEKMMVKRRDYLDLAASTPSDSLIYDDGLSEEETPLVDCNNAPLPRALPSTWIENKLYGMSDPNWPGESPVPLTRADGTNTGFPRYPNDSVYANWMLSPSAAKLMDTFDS
Sequence of UniProt Q9BRA2 (whole entry, looked up): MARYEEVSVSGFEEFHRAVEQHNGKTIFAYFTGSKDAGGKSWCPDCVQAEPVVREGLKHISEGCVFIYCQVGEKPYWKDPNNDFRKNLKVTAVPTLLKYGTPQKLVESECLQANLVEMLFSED

The EC50 of `COc1ccccc1C(C[N+](=O)[O-])c1c(-c2ccccc2)[nH]c2ccccc12` (centres unmarked) is reported as 290 nM (Cannabinoid receptor 1 (CNR1, Homo sapiens, UniProt P21554, Y397A); G protein activation, agonist, BRET).
For `CC[C@H](C)[C@H](NC(=O)[C@@H](NC(=O)[C@@H](NC(=O)[C@H](Cc1ccccc1)NC(=O)[C@H](C)NC(=O)[C@H](CCCNC(=N)N)NC(=O)CNC(=O)[C@@H]1CCCN1C(=O)CNC(=O)[C@@H](N)CCCCNC(=O)c1ccc2c(c1)C(=O)OC21c2ccc(N(C)C)cc2Oc2cc(N(C)C)ccc21)C(C)C)[C@@H](C)O)C(=O)O`, “dissociation rate constant” read under 1e-05 s⁻¹ (H-2 class I histocompatibility antigen, D-D alpha chain, 18 (H2-D1, Mus musculus, UniProt P01900); peptide dissociation from free MHC-I, fluorescence anisotropy and NMR; H-2D murine MHC-I, human β2m).
`COc1ccccc1-c1n[nH]c2nc(NC3CCN(C(=O)Cc4ccc(F)cc4F)CC3)ncc12` has a relative abundance of 1.02 (bead binding, competition bead pull-down, item: LINJ.36.1320; Leishmania donovani axenic amastigote extract; 10 µM; baseline: vehicle).
`CCCCN(C)c1c(C)nc2ccc(C(=O)N3CCC[C@@H](C(N)=O)C3)cn12` — result for activity: “active” (ache; inhibitor; 5 µM).
`C#CCCCCOc1ccc2c(c1)CCCN2C(=O)CCl` gave a reactivity ratio of 0.596 (3-ketoacyl-CoA thiolase, mitochondrial (Homo sapiens, UniProt P42765); mass spectrometry profiling; H460 cell lysate; 100 µM over 10 µM, UniProt P42765; baseline: high over low concentration).
`Clc1cc(Cl)cc(CNCCCNc2nc3ccccc3[nH]2)c1` gave a selectivity ratio of over 15.7 (Methionine--tRNA ligase, mitochondrial (MARS2, Homo sapiens, UniProt Q96GW9); enzyme activity; baseline: human IC50 over T. brucei IC50).
For `C#CCOC1CCN(c2ccc(C=NNC(=O)CCl)cc2)CC1`, the labelling concentration was 0.1 to 0.5 µM (Thioredoxin domain-containing protein 17 (Homo sapiens, UniProt Q9BRA2); cysteine labelling, gel-based live-cell labelling; HEK-293T; strong ligand-dependent labelling).
`OB(O)c1ccc(OCc2ccccc2)nc1F` gave a selectivity ratio of 928 (Chymotrypsinogen A; pNA substrate hydrolysis; baseline: Ki protease over Ki AmpC).
`CN(C)CCCSC(=S)N1CCN(C(=O)/C=C/c2coc3ccccc3c2=O)CC1` gave an MST response of 0.363 a.u. (Nucleoprotein (N, Tomato spotted wilt virus, UniProt P25999, R94A/Y184A); binding, microscale thermophoresis; 0.4883 µM; dose series).
The tissue uptake of `C[C@@H](O)[C@@H]1NC(=O)[C@@H](NC(=O)CCOCCOCCOCCOCCNC(=O)c2ccc(NN)nc2)CSSC[C@@H](C(=O)O)NC(=O)[C@H](Cc2c[nH]cn2)NC(=O)[C@H](CO)NC(=O)[C@H](Cc2ccccc2)NC(=O)[C@@H]2CCCN2C(=O)[C@H](CO)NC(=O)[C@@H]2CCCN2C1=O` [technetium-99m labelled] is reported as 1.51 ± 0.29 %ID/g (mouse HCT-116 xenograft, liver; intravenous, 37 MBq, postmortem after imaging).
`O=C1NC(=O)c2c1c1cc(F)c[n+]3c1c1c2c2cc(O)ccc2[n]1[Ru-4]312([N]=C=S)[S+]3CC[S+]1CC[S+]2CC3` (centres unmarked) gave a remaining activity of 112% (Proto-oncogene tyrosine-protein kinase ROS (ROS1, Homo sapiens, UniProt P08922); enzyme activity; 100 nM, human enzyme, together with: 10 µM ATP; baseline: untreated).
With `O=C(O)c1cccc(CP(=O)(O)O)n1` the kon was 8000 ± 833 M⁻¹ s⁻¹ (Metallo-beta-lactamase VIM-2 (VIM-2, Escherichia coli, UniProt Q5U7L7); enzyme activity, inhibitor; together with: nitrocefin).
With `O=C(Cc1ccc(Cl)c(Cl)c1)N1CCN[C@@H]2COC[C@H](N3CCCC3)[C@H]21` the Emax was 53% (Kappa-type opioid receptor (OPRK1, Homo sapiens, UniProt P41145); β-arrestin-2 recruitment, agonist; U2OS; 1.5 h; baseline: U-69593 maximal response).
`CC(C)OC(=O)[C@H](C)NP(=S)(Oc1ccccc1)c1ccccc1` (some centres unmarked): “degradation rate constant” 0.182 h⁻¹ (Lysosomal protective protein (CTSA, Homo sapiens, UniProt P10619); substrate, LC-MS/MS; 5 µM, pH 7.4, 37 °C).
`CC[C@H](C)[C@H](NC(=O)[C@H](CO)NC(=O)[C@H](Cc1ccc(O)cc1)NC(=O)[C@H](Cc1ccc(O)cc1)NC(=O)[C@H](CC(N)=O)NC(=O)CNC(=O)[C@H](CO)NC(=O)[C@H](Cc1ccc(O)cc1)NC(=O)[C@H](CO)NC(=O)[C@H](CO)NC(=O)[C@H](CC(N)=O)NC(=O)COCCOCCNC(=O)CN1CCN(CC(=O)O)CCN(CC(=O)O)CCN(CC(=O)O)CC1)C(=O)N[C@@H](CC(C)C)C(N)=O` [copper-64 labelled]: “maximum metastasis uptake” 25 %IA/cc (dynamic PET; tamoxifen-induced PDAC mouse model, metastases; 1.1 min, CLDN4-expressing tumours).
The inhibition of `O=C(NC1CCN(c2ncnc3[nH]cnc23)CC1)c1cccc(NS(=O)(=O)c2ccc(C(F)(F)F)cc2)c1` is reported as 50% (Replicase polyprotein 1ab, nsp14 (Human coronavirus OC43, UniProt P0C6X6); enzyme activity; 0.7812 µM).
`Cc1cc(C(=O)Nc2nc3cccc(C)c3n2[C@H]2CCCCN(C(=O)/C=C/CN(C)C)C2)ccn1` — result for “cell cycle distribution”: 10.8% and 14.6% and 11.7% (Trypanosoma brucei; propidium iodide flow cytometry, item: S phase; bloodstream CLK1 over-expression uninduced; concentration not given).
The EC50 of `Cc1ccc2c(C(C[N+](=O)[O-])c3cccs3)c(-c3ccccc3)[nH]c2c1` (centres unmarked) is reported as 160 nM (Cannabinoid receptor 1 (CNR1, Homo sapiens, UniProt P21554, P394A); G protein activation, agonist, BRET).
With `CS(C)(=O)=Nc1ccc(-c2ccc(-c3nc4cc(O[C@@H]5CO[C@H]6[C@@H]5OC[C@H]6O)[nH]c4cc3F)cc2)cc1` the inhibition was 13% (Tyrosine-protein kinase JAK1, JH1 (JAK1, Homo sapiens, UniProt P23458); enzyme activity, inhibitor; 10 µM).
`O=C(O)c1cc(O)c2c(c1)[C@@H]([C@H]1c3cc(C(=O)O)cc(O)c3C(=O)c3c(O[C@@H]4O[C@H](CO)[C@@H](O)[C@H](O)[C@H]4O)cccc31)c1cccc(O[C@@H]3O[C@H](CO)[C@@H](O)[C@H](O)[C@H]3O)c1C2=O` gave a remaining activity of 5.43% (Pancreatic triacylglycerol lipase (PNLIP, Homo sapiens, UniProt P16233); enzyme activity, inhibitor, fluorescence; 50 µM).
The inhibition of `C[C@H](NCc1ccc(-c2ccc(C(F)(F)F)cc2)cc1)C(N)=O` is reported as 99% (Amine oxidase [flavin-containing] B (MAOB, Homo sapiens, UniProt P27338); enzyme activity, SafetyScreen panel; 1 µM, together with: 50.0 µM kynuramine).
For `N=C(N)NCCC[C@@H]1NC(=O)[C@H](CCCCNC(=O)CCC(NC(=S)Nc2ccc(CC3CN(CC(=O)O)CCN(CC(=O)O)CCN(CC(=O)O)CCN3CC(=O)O)cc2)C(=O)NCCCC[C@@H]2NC(=O)[C@@H](Cc3ccc(O)cc3)NC(=O)[C@H](CC(=O)O)NC(=O)CNC(=O)[C@H](CCCNC(=N)N)NC2=O)NC(=O)[C@@H](Cc2ccc(O)cc2)NC(=O)[C@H](CC(=O)O)NC(=O)CNC1=O` (some centres unmarked) [scandium-44 labelled], the tissue uptake was 0.064 ± 0.016 %ID/g (ex vivo γ-counting; female athymic nude mice, U-87 MG xenograft, spleen; intravenous, 4 h, together with: cRGD 50 mg/kg blocking).
`CCC[C@H](C(=O)c1ccccc1)N1CCCC1` gave a Ki of 581 nM (Sodium-dependent dopamine transporter (SLC6A3, Homo sapiens, UniProt Q01959); dopamine uptake, inhibitor; HEK293 transiently transfected; DAT S149A mutant, together with: [3H]dopamine).
For `CC(C)CC(O)(CC(C)C)c1cn(C(=O)N2CCCC2)nn1`, “SILAC activity ratio” read 0.9 and 1.04 and 0.93 and 0.95 and 0.85 and 0.91 (Monoacylglycerol lipase ABHD6 (Abhd6, Mus musculus, UniProt Q8R2Y0); probe labelling, inhibitor, competitive ABPP-SILAC; mouse T cells; concentration not given, 4 h, single peptide; baseline: treated over DMSO cells, lower = stronger inhibition).
`O=C1NC2(CC2)COc2ncc(F)cc2[C@H]2COCCN2c2ccn3ncc1c3n2`: “organ-to-brain weight ratio” 3.65 ± 0.62% (Sprague-Dawley rat, female, adrenals; oral, 10 mg/kg/day, 4 weeks dosing, end of recovery).
`CCN(CC)C(=O)c1ccc(C(c2cccc(O)c2)N2CC(C)N(Cc3ccccc3)CC2C)cc1` (centres unmarked) gave an EC50 of 0.15 ± 0.03 nM (Delta-type opioid receptor (OPRD1, Homo sapiens, UniProt P41143, K214A); agonist).
For `CC(C)[C@H]1NC(=O)C[C@H]2/C=C/CCSSC[C@@H](NC1=O)C(=O)N[C@H](Cc1cccc3ccccc13)C(=O)NCC(=O)O2`, the inhibition was 9.8% (Proto-oncogene tyrosine-protein kinase receptor Ret (RET, Homo sapiens, UniProt P07949); enzyme activity, inhibitor; 10 µM).
For `N[C@H](C(=O)N1CCCC1)C1CCN(c2nccc3c(-c4ncc(Cl)cc4Cl)cccc23)CC1`, the kcat was 1.95 s⁻¹ and 1.92 s⁻¹ (Protein-arginine deiminase type-4 (PADI4, Homo sapiens, UniProt Q9UM07); enzyme activity; 0.03932 µM, high-affinity site, together with: Ca2+ 1.5 mM).
`Cc1ccc(-c2csc(NN=C(C=Cc3ccc(Cl)cc3)C(=O)O)n2)cc1` gave a selectivity index of 4.65 (ache; Ellman; baseline: IC50 BChE over IC50 AChE).
The inhibition of `Cc1sc2c(c1C)C(c1ccc(Cl)cc1)=NC(CC(=O)OC(C)(C)C)c1nnc(C)n1-2` (centres unmarked) is reported as 61% (Adenosine receptor A3 (ADORA3, Homo sapiens, UniProt P0DMS8); ligand displacement, radioligand; 1 µM).
For `[CH3][Ti+2][O]C(=O)c1ccc([S][Au][PH](c2ccccc2)(c2ccccc2)c2ccccc2)cc1.c1cc[cH-]c1.c1cc[cH-]c1`, the remaining activity was 80.8% and 80.5% (Protein kinase C theta type (PRKCQ, Homo sapiens, UniProt Q04759); kinase activity, HotSpot radiometric; 1 µM, together with: ATP 10 µM; baseline: vehicle).
With `CC(=O)N[C@@H](CCC(N)=O)C(=O)N[C@@H](CC1CCCCC1)C(=O)N[C@@H](CNC(=O)CCl)C(=O)N[C@@H](CC(C)C)C(=O)N[C@@H](Cc1ccccc1)C(=O)O` the ΔH was -10.9 kcal/mol (Beta sliding clamp (Escherichia coli, UniProt P0A988); binding, isothermal titration calorimetry; pH 7.4, 22 °C).
`CCOC(=O)[C@@H]1Cc2c(cc([N+](=O)[O-])cc2[N+](=O)[O-])[C@H](O)[C@]12C(=O)Nc1ccc(Br)cc12` gave a remaining binding of 58% (Phosphatidylinositol 4,5-bisphosphate 3-kinase catalytic subunit gamma isoform (PIK3CG, Homo sapiens, UniProt P48736); binding, competition with immobilised ligand; 0.1 µM).
`O=C(O)c1ccc(-c2nc(-c3ccccc3Cl)c3sccn23)cc1` has a remaining activity of 96% (BLVRA (Homo sapiens, UniProt P53004); enzyme activity, inhibitor; 10 µM, together with: biliverdin IXα 25 µM).
The remaining activity of `Cc1ccc(N2CC3CCC(C2)N3C)cc1C(=O)N[C@H](C)c1cc(-c2cnn(C)c2)nc2ccccc12` is reported as 96.9% (Caspase-3 (CASP3, Homo sapiens, UniProt P42574); enzyme activity; 30 µM, 0.5 h).
`CN(C)[C@H]1C[C@@]23CC[C@@]4(O2)C(=CC[C@]2(C)[C@@H](c5ccc6ccncc6c5)CC[C@H]24)C=C3[C@@H](O)[C@@H]1O` has an inhibition of -7.3% (NUAK family SNF1-like kinase 1 (NUAK1, Homo sapiens, UniProt O60285); ATP probe labelling, inhibitor, KiNativ profiling; 0.1 µM).
For `CC(C)(C)C(=O)OCOP(=O)(OCOC(=O)C(C)(C)C)C1CCCN(O)C1=O` (centres unmarked), the CC50 was over 100000 nM (UO-31).
`Cc1cccc(/N=N/c2cccc([B-](F)(F)F)c2)c1.[K+]` has a switching factor of 1.3 ± 0.2 (Chymotrypsinogen A; enzyme activity, inhibitor; together with: Suc-AAPF-AMC; baseline: Ki cis over Ki trans).

A few entries again:
`CN(C)[C@H]1C[C@@]23CC[C@@]4(O2)C(=CC[C@]2(C)[C@@H](c5ccc6ccncc6c5)CC[C@H]24)C=C3[C@@H](O)[C@@H]1O` has an inhibition of -7.3% (NUAK family SNF1-like kinase 1 (NUAK1, Homo sapiens, UniProt O60285); ATP probe labelling, inhibitor, KiNativ profiling; 0.1 µM).
For `CC(C)(C)C(=O)OCOP(=O)(OCOC(=O)C(C)(C)C)C1CCCN(O)C1=O` (centres unmarked), the CC50 was over 100000 nM (UO-31).
`Cc1cccc(/N=N/c2cccc([B-](F)(F)F)c2)c1.[K+]` has a switching factor of 1.3 ± 0.2 (Chymotrypsinogen A; enzyme activity, inhibitor; together with: Suc-AAPF-AMC; baseline: Ki cis over Ki trans).
